Published values of several laboratories.
Protocols differ between the studies behind these lines.
pmiR 1-240: pmiR fragment (Pseudomonas aeruginosa)
vfr 1-214: vfr 1-214 (Pseudomonas syringae)
T1: cbrB residues 1-471 (Pseudomonas stutzeri); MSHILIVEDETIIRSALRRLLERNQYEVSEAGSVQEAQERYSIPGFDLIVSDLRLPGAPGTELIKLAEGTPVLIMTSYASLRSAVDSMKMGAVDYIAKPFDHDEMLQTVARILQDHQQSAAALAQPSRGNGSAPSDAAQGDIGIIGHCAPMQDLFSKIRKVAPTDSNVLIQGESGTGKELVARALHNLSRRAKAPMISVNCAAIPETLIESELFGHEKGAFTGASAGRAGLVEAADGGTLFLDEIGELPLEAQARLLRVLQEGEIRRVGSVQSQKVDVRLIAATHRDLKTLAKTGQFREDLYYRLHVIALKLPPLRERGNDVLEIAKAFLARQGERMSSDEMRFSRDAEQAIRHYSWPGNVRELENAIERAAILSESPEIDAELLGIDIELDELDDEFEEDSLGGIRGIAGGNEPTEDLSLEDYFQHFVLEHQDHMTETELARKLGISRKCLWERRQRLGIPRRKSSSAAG
T2: vfr 1-214 (Pseudomonas syringae); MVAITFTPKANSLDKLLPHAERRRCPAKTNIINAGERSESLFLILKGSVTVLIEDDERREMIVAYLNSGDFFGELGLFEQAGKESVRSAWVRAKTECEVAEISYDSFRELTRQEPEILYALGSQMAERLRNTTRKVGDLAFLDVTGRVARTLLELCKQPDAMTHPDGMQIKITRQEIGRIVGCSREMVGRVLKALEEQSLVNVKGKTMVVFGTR
T3: fruR (Faecalibacterium prausnitzii); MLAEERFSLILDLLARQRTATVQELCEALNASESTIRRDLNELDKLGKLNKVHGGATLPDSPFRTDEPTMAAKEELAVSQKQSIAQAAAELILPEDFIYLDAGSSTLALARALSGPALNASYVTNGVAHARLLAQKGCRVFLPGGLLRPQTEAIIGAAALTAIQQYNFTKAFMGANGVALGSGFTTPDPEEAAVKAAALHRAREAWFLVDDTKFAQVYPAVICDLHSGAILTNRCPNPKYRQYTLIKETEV
Chain of UniProt Q9WW32 (whole entry, looked up): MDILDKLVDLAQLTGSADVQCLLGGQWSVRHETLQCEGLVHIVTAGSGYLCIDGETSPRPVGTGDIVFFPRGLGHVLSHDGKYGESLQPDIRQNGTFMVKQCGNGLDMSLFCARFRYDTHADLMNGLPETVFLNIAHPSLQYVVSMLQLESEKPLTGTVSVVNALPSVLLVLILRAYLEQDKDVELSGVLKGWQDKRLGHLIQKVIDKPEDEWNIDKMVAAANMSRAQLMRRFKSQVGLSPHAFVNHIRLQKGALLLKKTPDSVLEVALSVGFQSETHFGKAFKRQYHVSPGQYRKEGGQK
Chain of UniProt H9L484 (whole entry, looked up): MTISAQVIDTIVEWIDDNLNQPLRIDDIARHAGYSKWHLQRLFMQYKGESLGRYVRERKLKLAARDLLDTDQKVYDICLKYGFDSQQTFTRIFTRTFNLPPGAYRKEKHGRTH

CAGGCGGTAGCTTTCGCAAACATTGTCGACACATCGACCCGGACAGCCAGTACCATGACCCAGAACCCGCCCCCTCTCGAGATTGCCCATGACGACGGAGAGACCTTGTCGGAACACGTCTTCCGCAAGATCCAGAGCGCCATCGTCAGCGGCG (dsDNA)
binding (pmiR 1-240; EMSA; double-stranded DNA, one strand shown): no binding

GTGTGCTTTCTTGTTCTTGTTGTGCCCATTAGAAAGCATTCGCCGTGCCAGCTTTTGAGAATCCTTTATTTTCAATAGGTTAGCCATCTTCACCTGTCACGAGAGACTGCCGCGCCAGCCCTTTCGTTACCGCCCACCCCAGGAGACCGTTACGCCGTACGAAAGGAGTAACACCTTCGGACAGGTTTCCAGTAACAGCTGCAGCTCCGCATCGGGCGCTCAACGCAGGACACCCCGACAGTGGTCACCGTCAGGGTGTCGATCGCTCGATGGGCATAGGTAGGTTCTTCGGCTGGTTAG (dsDNA)
binding (T1, cbrB residues 1-471 (Pseudomonas stutzeri); DNase I footprinting; double-stranded DNA, one strand shown): binds

CCAAGGGTGCTATAATAGGAAATGAGTTAAAAAACGAACAAGCGTTTTATAAGTGTTCGGTTTTTGTAACATAACTGTAATATAAAAACATTTGCATTACTGGTAACTTTCGGGTAATATTGGTAGCAGAGAGGGACAAACGGGACAAATCGAGACACGATACATACTCTCTATACAAGTGAAAAGAAGGTGGTGCATAT (dsDNA)
binding (gp1 1-58 (Bacillus phage GIL01, UniProt Q7WSG8); EMSA; double-stranded DNA, one strand shown; together with: gp1 2-32 nM): binds

TGATTGTCGACAATCGTCTAATGCATCGCTGGTCTATGCTTTCCCCTCCAGCCGCTGTGCCAGGAGAGAGTTTCGTGGGCATCTATGACCGTTACGTGTTGCCGCGCCTGATCGACTTCGCCTGCGGCATGGGCG (dsDNA)
binding (pmiR 1-240; EMSA; double-stranded DNA, one strand shown): no binding

GCCTAAAAGAGGATATCCTTATAGCATAATTAACTAAACTTAATTAAATAAATAATATATCCTAAGGAGAGAAATG (dsDNA)
binding (Manganese transport regulator 1-215 (Streptococcus pyogenes, UniProt A0A0H2UTK0); EMSA; double-stranded DNA, one strand shown; together with: Mn2+ 300 µM): binds

TACGTCACCGGGCTGTGCCAAAAAGGGTCGCCTGTGCGGCCCTTTTTTATTTTCGCGCCGAGGGCAGGGAAGCGCACAAAAGTGAGACTTGTGTCACGGCACGGCGCTTGCTACAAAGATGACAGAAAAGTGCCATCATTTTAATGGCGCTGAGGGTGGAGGGATTCTCCT (dsDNA (Pseudomonas syringae))
binding (T2, vfr 1-214 (Pseudomonas syringae); EMSA; double-stranded DNA, one strand shown): binds

ATTGGATCCAGTACTTTTGCTTCAGCCATTGCTCTCTCCTTTCTTGAACTTTTTCTGGATGCTGCAACTCGGTTTCACGGGGTTCGCGGACCGGCGCTCAGGCGCACGCCGGGCTCGATGTTCAGGCGTTCTTCTTCTGCGCTCGAGATT (dsDNA)
binding (pmiR 1-240; EMSA; double-stranded DNA, one strand shown): no binding

CCGTGATCCCTGGCTCCCCTATTAGGAGAGCTCCGCAAGGCGCTGGCACAGCCAGACCGAAGCGGTGAGAGATTCAGCCGACATTCCATTGTGGAGTGTCGGCCTTTTTGTTGTATCCCACTCTTTATGCATCCTGCCCAAAAAACAGAGCAATATTTTGTCGCTCAAACTTGGCGGAATCTGATTGATTTTGACTGAAATTTTGCTATAATAAGGGTACCATTTTCGCCGAACCCGCCAATGTCAATCAAAATCAATCATATAAATCGAACAAGGGGGAATGTTCCCG (dsDNA)
binding (T3, fruR (Faecalibacterium prausnitzii); EMSA; double-stranded DNA, one strand shown; apo): binds

GAGTTCTCTCCTTGTCGACCGGCTCAGAGGATCTTGTTCCCCCGGTGTACCAGGGGTCCGTGGTGCCCATTTTGCCGGACAGTCCAAACAGTGTGATCTGTCACAAGGATGCCGCACTGATGTCCCGGGGTACGCGGCAGGGGTCCAATTGGGCGCCGGTCTTCGAGGTCCGGGGCGGATGTCCGTGCCGGGTCGTAGGCTGGCCGGGTGTCCAAATCGCCGGTGAGAGCACA (dsDNA)
binding (crp 1-224 (Streptomyces coelicolor, UniProt Q9XA42); DNase I footprinting; double-stranded DNA, one strand shown; together with: cAMP 50 µM): binds

melittin
free energy of partitioning (CD titration; POPC 90% POPG 10% vesicles; pH 7.0, 60 °C): -6.77 kcal/mol

CTCAACCACTGGCTCGATCACCTGCTGCTGACCTTGTTACCGGGGGAGGTGAAATGAGCCCCGCGCAGCAGCGTGGGCTGGCGCTGTGGGCCAGTCTGCTGAGTGCGCTG (dsDNA (Klebsiella pneumoniae); blunt)
binding (hns 1-135 (Klebsiella pneumoniae, UniProt A0ACD7U3E5); EMSA; double-stranded DNA, one strand shown): no binding

CGGCTTTTCTTTTCGCCTTATTTATCCAATTTATCGATTAAATAGAGAAAAGCTAACTATCCTTTACGAAATCTTCGACATCACAAAAATAATCAACTAACTTACTGATAAGTAATAAGAAAACACATAATCACCCATGTCGATAGACACTATCATCGCACTTCGTTTTTAAATCGACTTATCCGAACTGAAAATGACTCCAACGCA (dsDNA (Pseudomonas aeruginosa))
binding (mexT 1-304 A39V (Pseudomonas aeruginosa); EMSA; double-stranded DNA, one strand shown): no binding

ACATTCACTGAGGGTCAGTCGATAGAGCCAATCGCGTCTGTTGCTGTAAGCCTTTCGCCATACCCGTGTACGCCGCTAAAAAGTGTGACCGACCGCTCATGTTTGGTCATTACGCGCCGAGATGCTTGAAAGGCCCTGAATCGCGCGCTGCGCGGATCAGAGTCATCAGAAGAAAAAAAATAATGCATGGGATGCCGATCATGAGTATGCGCAGT (dsDNA (Pseudomonas syringae))
binding (T2, vfr 1-214 (Pseudomonas syringae); EMSA; double-stranded DNA, one strand shown): binds

CCATATGTCGGTGAATTTACAGGCGTTAGATTTACATACATTTATGGATGTATGTACCATAGCACGACGATAATATAAACGCAGCAATGGGTTTAAGGACCTTTGACCATTGACCAATTTGAAATCGGACACTCGAGGTTTACATATGAACAAAAACAGAGG (dsDNA (Salmonella enterica))
binding (ramA 1-113 (Salmonella enterica, UniProt H9L484); EMSA; double-stranded DNA, one strand shown): no binding

CGTTTCGGGTCGGTTTGACGAGGGCGGATTATAAAAAAGACTTTTTATCCGTGCAATCGTGTATGTATAATGAAACCCATAAAATTGAGACTGC (dsDNA (Neisseria gonorrhoeae))
binding (mtrA 1-301 (Neisseria gonorrhoeae, UniProt Q9WW32); DNase I footprinting; double-stranded DNA, one strand shown): binds

CGATTGTCGACAATCAAGCGACGAATGATTGACCCCACGCAATCCAGGCGGTAGCTTTCGCAAACATTGTCGACACATCGACCCGGACAGCCAGTACCATGACCCAGAACCCGCCCCCTCTCGAGATTGCCCATGACGACGGAGAGACCTTGTCGGAACACGTCTTCCGCAAGATCCAGAGCGCCATCGTCAGCGGCG (dsDNA)
binding (pmiR 1-240; EMSA; double-stranded DNA, one strand shown): binds

For quick reference, copied from above:
CAGGCGGTAGCTTTCGCAAACATTGTCGACACATCGACCCGGACAGCCAGTACCATGACCCAGAACCCGCCCCCTCTCGAGATTGCCCATGACGACGGAGAGACCTTGTCGGAACACGTCTTCCGCAAGATCCAGAGCGCCATCGTCAGCGGCG (dsDNA)
binding (pmiR 1-240; EMSA; double-stranded DNA, one strand shown): no binding
